Assay results pooled from the literature.
Several values in a cell are separate wells, animals, samples, runs or records. ± gives the spread as reported. Values after ≈ are worked out from the molar mass of the structure shown.

Structure (SMILES)	organism	test	system	conditions	how to read	quantity	value
[O-][N+]1=C(c2ccccc2)C2=NCCCN2c2ncccc21	Clostridium perfringens					MIC	0.25 to 1 µg/mL (≈ 0.898 to 3.59 µM)
O=C(C=Cc1ccc(O)c(O)c1)OC1CC(O)(C(=O)O)CC(OC(=O)C=Cc2ccc(O)c(O)c2)C1O (stereo not drawn)	Severe acute respiratory syndrome coronavirus 2	cytopathic effect, inhibitor	Vero C1008	3.125 µM		inhibition	0%
COC(=O)c1ncn(C2OC(COC(=O)c3ccccc3)C(OC(=O)c3ccccc3)C2OC(=O)c2ccccc2)c1C(=O)OC (stereo not drawn)	Mammarenavirus lassaense	viral replication	Vero	48 h		IC90	> 50 µg/mL
CC(=O)c1ccc2c(c1)N(CCCN(C)C)c1ccccc1S2	SARS coronavirus		Vero 76, Urbani			EC90	21.5 ± 14.6 µM
CN1CCN(C(=O)N[C@@H](Cc2ccccc2)C(=O)N[C@H](/C=C/S(=O)(=O)c2ccccc2)CCc2ccccc2)CC1	Bundibugyo ebolavirus	pseudovirus entry	HEK-293T			IC50	0.00591 ± 0.0005 µM
Cc1ccc(NS(=O)(=O)c2c(C(=O)N3CCCCCC3)c(C)n(C)c2C)c(Cl)c1	Vaccinia virus	viral infection	HaCaT	0.137 µM, 36 h	baseline: untreated	infection	78.3% and 82% and 81.4%
O=S(=O)(O)c1cccc(-c2c3nc(c(-c4cccc(S(=O)(=O)O)c4F)c4ccc([nH]4)c(-c4cccc(S(=O)(=O)O)c4F)c4nc(c(-c5cccc(S(=O)(=O)O)c5F)c5ccc2[nH]5)C=C4)C=C3)c1F	vaccinia virus	viral replication	CV-1, IHD-J			EC50	0.26 ± 0.1 µg/mL (≈ 0.258 µM)
Cc1cc(C)c(SCC2OC(OC3C(N)CC(N)C(OC4OC(CN)C(O)CC4N)C3O)C(O)C(N)C2O)c(C)c1 (stereo not drawn)	Bacillus anthracis		Sterne 34F2			MIC	18.8 µg/mL (≈ 31.2 µM)
Cc1cc(C)cc([C@@H]2C[C@H]2C(=O)N[C@H](C(=O)NCc2ccccc2)c2ccc(C)c(C)c2)c1	Chikungunya virus	viral protein expression, Western blot, measured: nsP1, nsP2, capsid	BHK-21	6 h		effective concentration	> 50 µM
O=[N+]([O-])c1ccc(-n2nc(-c3ccc(F)cc3)cc2-c2ccc(F)cc2)c([N+](=O)[O-])c1	Japanese encephalitis virus		Neuro2a, SA14-14-2	15 µM, 96 h		virus titre	4.25 log10 TCID50
NNC(=O)c1ncn(C2OC(CO)C(O)C2O)c1C(=O)NN (stereo not drawn)	Severe acute respiratory syndrome coronavirus	viral replication	Vero	48 h		IC50	35 µg/mL
CC[C@H](C)[C@H](NC(=O)[C@H](CCCCN)NC(=O)[C@H](CCCCN)NC(=O)[C@H](CC(C)C)NC(=O)[C@H](Cc1c[nH]c2ccccc12)NC(=O)CN)C(=O)NCC(=O)N[C@@H](CCCCN)C(=O)N[C@@H](CCCCN)C(=O)N[C@H](C(=O)N[C@@H](CCC(=O)O)C(=O)N[C@@H](CCCNC(=N)N)C(=O)N[C@H](C(=O)NCC(=O)N[C@@H](CCC(N)=O)C(=O)N[C@@H](Cc1c[nH]cn1)C(=O)N[C@H](C(=O)N[C@@H](CCCNC(=N)N)C(=O)N[C@@H](CC(=O)O)C(=O)N[C@@H](C)C(=O)N[C@H](C(=O)N[C@H](C(=O)N[C@@H](CCC(N)=O)C(=O)N[C@H](C(=O)N[C@H](C(=O)NCC(=O)N[C@H](C(=O)N[C@@H](C)C(=O)N[C@@H](CCC(N)=O)C(=O)N[C@@H](CCC(N)=O)C(=O)N[C@@H](C)C(=O)N[C@@H](C)C(=O)N[C@@H](CC(N)=O)C(=O)N[C@H](C(=O)N[C@@H](C)C(=O)N[C@@H](C)C(=O)N[C@H](C(=O)N[C@@H](CC(C)C)C(=O)N[C@@H](CCCCN)C(N)=O)[C@@H](C)O)C(C)C)C(C)C)[C@@H](C)CC)[C@@H](C)O)[C@@H](C)CC)[C@@H](C)O)[C@@H](C)O)C(C)C)[C@@H](C)CC	Pseudomonas aeruginosa	broth microdilution	RKI 93/12, CAMHB with 10% mouse serum	150 mM NaCl		MIC	512 µg/mL (≈ 122 µM)
C[N+]1=C2C(c3ccc([N+](=O)[O-])cc3)=[N+]([O-])c3ccccc3N2CCC1	Clostridium perfringens					MIC90	1 µg/mL
O=[N+]([O-])c1ccc(-n2nc(-c3ccccc3)cc2-c2ccc(F)cc2)c([N+](=O)[O-])c1	Japanese encephalitis virus	plaque	Neuro2a, SA14-14-2	15 µM, 72 h, post-treatment		viral particle reduction	≤ 70%
CC(C)CC(C(=O)N1CC2(CC1C#N)C(=O)Nc1ccccc12)N(C)C(=O)c1cc2c(F)cc(F)c(F)c2[nH]1 (stereo not drawn)	SARS-CoV-2	viral replication, infectious virus	Vero E6	0.041 µM		inhibition	95%
NC(=O)c1ncn(C2OC(CO)C(O)C2O)c1C(N)=O (stereo not drawn)	Zaire ebolavirus	viral replication, inhibitor	Vero	72 h		IC50	28 µg/mL
[O-][N+]1=C(c2ccc(Cl)cc2)C2=NCCCN2c2ccccc21	Clostridium perfringens					MIC90	64 µg/mL (≈ 205 µM)
O=C(O)c1ncn(COCCOCc2ccccc2)c1C(=O)O	Zaire ebolavirus	viral replication, inhibitor	Vero	72 h		IC50	41 µg/mL
Cl.O=C(O)CCCC1C2CCCN3CCCC(CN1Cc1ccc(Cl)c(Cl)c1)C23 (stereo not drawn)	Ebola virus			EBOV GP pseudotyped HIV	baseline: CC50 over IC50	selectivity index	> 2.54
CC(=O)OCCOCn1cnc(C#N)c1C#N	Mammarenavirus lassaense	viral replication	Vero	48 h		IC90	47 µg/mL (≈ 201 µM)
COC(=O)c1cc2c(=O)n3ccccc3nc2n1Cc1ccccc1	Severe acute respiratory syndrome coronavirus 2	viral replication	Vero	1 nM		inhibition	11.8%

A few entries again:
Structure (SMILES)	organism	test	system	conditions	how to read	quantity	value
C[N+]1=C2C(c3ccc([N+](=O)[O-])cc3)=[N+]([O-])c3ccccc3N2CCC1	Clostridium perfringens					MIC90	1 µg/mL
